Results pooled from the literature.
Parts stem from different laboratories: compare values within a part only.
Chain of UniProt Q9BX84 (whole entry, looked up): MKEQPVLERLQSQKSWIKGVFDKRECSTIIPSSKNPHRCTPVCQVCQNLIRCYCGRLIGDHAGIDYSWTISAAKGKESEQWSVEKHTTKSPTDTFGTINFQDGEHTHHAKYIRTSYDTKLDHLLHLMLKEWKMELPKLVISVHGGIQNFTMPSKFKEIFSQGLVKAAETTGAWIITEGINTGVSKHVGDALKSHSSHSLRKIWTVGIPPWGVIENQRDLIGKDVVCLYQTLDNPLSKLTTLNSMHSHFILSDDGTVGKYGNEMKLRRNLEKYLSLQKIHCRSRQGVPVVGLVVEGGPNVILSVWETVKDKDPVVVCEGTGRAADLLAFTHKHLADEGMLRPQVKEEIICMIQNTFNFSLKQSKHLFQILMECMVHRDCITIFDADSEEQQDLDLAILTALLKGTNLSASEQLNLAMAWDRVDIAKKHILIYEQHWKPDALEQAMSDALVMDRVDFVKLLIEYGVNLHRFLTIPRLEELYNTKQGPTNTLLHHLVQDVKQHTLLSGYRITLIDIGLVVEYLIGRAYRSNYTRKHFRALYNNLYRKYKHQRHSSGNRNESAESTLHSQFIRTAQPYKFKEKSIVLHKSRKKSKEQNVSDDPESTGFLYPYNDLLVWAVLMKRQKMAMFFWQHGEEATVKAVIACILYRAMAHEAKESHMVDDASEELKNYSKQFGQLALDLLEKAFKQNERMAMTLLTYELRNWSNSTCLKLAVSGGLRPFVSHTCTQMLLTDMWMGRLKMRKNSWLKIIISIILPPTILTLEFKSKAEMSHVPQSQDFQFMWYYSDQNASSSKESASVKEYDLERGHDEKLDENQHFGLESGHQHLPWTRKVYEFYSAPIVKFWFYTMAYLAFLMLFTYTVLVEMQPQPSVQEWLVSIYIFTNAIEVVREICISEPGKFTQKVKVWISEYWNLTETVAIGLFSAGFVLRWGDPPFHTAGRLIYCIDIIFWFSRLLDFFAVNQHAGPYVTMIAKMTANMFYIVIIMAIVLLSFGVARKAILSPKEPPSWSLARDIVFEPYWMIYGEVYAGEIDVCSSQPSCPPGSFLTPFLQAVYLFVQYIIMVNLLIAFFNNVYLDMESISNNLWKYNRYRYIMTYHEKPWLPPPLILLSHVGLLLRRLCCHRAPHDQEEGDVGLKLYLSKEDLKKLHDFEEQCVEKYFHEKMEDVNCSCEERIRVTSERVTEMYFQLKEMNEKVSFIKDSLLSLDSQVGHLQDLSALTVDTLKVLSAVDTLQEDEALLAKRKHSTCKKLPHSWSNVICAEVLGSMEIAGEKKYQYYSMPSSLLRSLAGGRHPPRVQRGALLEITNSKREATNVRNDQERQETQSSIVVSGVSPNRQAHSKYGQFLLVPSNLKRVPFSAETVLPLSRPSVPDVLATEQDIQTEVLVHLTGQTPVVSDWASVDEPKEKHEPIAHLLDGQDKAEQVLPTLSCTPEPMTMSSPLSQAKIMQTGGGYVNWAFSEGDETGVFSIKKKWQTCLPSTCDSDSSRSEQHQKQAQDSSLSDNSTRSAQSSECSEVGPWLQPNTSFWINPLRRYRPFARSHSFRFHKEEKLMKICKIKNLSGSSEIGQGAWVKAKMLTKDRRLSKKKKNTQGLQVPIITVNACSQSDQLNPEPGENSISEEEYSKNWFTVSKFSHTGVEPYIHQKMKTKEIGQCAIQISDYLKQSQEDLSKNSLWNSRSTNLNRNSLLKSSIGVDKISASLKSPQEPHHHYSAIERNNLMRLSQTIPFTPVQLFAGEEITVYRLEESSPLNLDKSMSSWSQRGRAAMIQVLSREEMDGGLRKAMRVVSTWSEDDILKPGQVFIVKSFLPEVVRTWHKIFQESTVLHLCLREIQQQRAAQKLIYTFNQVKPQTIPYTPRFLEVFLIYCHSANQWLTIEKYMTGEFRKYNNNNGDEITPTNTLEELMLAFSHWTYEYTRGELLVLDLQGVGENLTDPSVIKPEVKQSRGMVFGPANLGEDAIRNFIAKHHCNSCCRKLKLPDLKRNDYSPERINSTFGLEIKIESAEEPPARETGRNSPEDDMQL
Chain of UniProt P54764 (whole entry, looked up): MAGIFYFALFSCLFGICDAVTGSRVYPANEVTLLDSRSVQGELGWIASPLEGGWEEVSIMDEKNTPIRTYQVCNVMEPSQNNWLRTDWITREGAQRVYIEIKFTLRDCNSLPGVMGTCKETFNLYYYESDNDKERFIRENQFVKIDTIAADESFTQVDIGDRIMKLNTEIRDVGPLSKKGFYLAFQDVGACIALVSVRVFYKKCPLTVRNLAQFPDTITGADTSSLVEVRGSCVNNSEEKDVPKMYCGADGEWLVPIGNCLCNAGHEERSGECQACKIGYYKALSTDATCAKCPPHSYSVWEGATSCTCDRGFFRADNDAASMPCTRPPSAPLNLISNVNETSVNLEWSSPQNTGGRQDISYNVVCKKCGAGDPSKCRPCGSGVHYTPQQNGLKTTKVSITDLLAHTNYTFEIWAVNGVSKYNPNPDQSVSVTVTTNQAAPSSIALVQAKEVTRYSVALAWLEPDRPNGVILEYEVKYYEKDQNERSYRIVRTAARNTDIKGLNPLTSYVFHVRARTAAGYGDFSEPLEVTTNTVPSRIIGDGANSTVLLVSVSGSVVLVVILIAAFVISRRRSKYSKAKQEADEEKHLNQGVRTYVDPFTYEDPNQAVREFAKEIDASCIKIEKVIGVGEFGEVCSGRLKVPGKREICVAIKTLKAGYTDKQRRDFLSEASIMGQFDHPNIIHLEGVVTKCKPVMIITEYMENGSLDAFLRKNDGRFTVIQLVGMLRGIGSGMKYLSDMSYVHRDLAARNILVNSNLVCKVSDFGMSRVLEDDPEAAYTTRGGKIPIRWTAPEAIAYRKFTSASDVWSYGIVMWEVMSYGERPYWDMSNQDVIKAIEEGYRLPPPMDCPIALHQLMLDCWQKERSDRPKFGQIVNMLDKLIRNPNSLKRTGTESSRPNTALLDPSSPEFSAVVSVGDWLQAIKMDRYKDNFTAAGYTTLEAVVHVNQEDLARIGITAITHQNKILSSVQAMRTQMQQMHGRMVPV
Chain of UniProt Q9UK32 (whole entry, looked up): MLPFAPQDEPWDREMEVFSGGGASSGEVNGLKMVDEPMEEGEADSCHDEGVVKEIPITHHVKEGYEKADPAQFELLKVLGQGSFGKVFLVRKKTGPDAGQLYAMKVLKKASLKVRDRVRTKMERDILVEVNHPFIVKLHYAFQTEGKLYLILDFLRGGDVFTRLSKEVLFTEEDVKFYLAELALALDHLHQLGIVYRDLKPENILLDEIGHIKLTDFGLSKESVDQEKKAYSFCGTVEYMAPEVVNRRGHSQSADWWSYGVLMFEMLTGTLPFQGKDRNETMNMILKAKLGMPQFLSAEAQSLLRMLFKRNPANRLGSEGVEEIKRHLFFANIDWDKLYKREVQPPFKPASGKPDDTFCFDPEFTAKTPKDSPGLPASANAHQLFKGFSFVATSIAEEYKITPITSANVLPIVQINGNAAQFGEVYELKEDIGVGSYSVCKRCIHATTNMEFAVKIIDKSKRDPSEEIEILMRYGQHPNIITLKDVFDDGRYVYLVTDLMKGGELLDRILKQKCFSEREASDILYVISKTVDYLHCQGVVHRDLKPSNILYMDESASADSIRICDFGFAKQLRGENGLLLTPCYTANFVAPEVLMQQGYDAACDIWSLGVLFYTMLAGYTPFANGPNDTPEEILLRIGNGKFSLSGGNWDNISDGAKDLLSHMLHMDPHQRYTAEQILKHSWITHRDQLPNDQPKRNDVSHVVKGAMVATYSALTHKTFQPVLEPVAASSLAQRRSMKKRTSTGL
Chain of UniProt O60285 (whole entry, looked up): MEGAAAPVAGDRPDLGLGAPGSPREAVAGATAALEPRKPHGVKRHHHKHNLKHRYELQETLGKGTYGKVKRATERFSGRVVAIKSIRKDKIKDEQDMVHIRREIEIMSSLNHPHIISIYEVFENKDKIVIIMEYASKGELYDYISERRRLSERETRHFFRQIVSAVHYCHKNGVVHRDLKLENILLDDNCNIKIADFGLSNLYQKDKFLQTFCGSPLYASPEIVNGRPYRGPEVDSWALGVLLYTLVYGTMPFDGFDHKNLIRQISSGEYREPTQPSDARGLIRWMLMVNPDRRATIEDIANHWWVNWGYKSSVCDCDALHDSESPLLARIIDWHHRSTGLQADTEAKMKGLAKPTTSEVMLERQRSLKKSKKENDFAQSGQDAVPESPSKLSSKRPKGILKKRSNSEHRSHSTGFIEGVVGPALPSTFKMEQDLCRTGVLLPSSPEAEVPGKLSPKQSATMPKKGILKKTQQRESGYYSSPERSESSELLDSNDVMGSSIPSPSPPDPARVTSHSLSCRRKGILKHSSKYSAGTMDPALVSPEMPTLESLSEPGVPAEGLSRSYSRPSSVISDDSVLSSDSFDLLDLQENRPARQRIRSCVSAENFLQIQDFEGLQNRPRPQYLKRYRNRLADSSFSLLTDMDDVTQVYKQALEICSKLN
Chain of UniProt P09769 (whole entry, looked up): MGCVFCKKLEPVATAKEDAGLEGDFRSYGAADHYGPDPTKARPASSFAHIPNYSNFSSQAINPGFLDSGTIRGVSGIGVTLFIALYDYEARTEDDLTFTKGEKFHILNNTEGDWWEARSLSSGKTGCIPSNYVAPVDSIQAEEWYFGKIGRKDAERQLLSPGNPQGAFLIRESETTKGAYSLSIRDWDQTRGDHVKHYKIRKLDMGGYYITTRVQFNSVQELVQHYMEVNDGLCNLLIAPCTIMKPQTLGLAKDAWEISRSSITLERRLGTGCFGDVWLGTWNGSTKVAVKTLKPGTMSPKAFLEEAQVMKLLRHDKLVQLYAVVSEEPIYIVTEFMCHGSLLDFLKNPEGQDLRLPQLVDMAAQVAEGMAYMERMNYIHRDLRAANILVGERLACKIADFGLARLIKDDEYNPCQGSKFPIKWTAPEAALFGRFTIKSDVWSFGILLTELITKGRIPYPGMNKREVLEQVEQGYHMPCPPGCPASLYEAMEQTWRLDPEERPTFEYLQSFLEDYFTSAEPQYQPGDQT

Series 1 — cell line: Huh-7; concentration: 10 µM; time: 24 h; measurement: viability
CC(C)Cc1ccc(C(C)C(=O)O)cc1 (stereo not drawn): 98.5%
O=C(C1CCCCC1)N1CC(=O)N2CCc3ccccc3C2C1 (stereo not drawn): 101%
COc1cc(NS(=O)(=O)c2ccc(N)cc2)nc(OC)n1: 98.8%
O=C(CCCCC(=O)Nc1c(I)cc(I)c(C(=O)O)c1I)Nc1c(I)cc(I)c(C(=O)O)c1I: 101%
Cc1ccc(N(CC2=NCCN2)c2cccc(O)c2)cc1: 102%
O=C1c2c(O)cccc2Cc2cccc(O)c21: 103%
C[C@@H]1CC2C3CCC4=CC(=O)C=C[C@]4(C)[C@@]3(F)[C@@H](O)C[C@]2(C)[C@H]1C(=O)CO (stereo partly drawn): 103%
Cc1cccc(C)c1OCC(C)N (stereo not drawn): 105%
CCn1cc(C(=O)O)c(=O)c2cc(F)c(N3CCNC(C)C3)c(F)c21 (stereo not drawn): 93.6%
O=C1CN2Cc3c(ccc(Cl)c3Cl)N=C2N1: 73.3%

Series 2 — Structure (SMILES): CSc1cccnc1N1CCN(Cc2nc3ccccc3[nH]2)CC1; technique: competition with immobilised ligand; concentration: 1 µM; measurement: remaining binding
PRKAA1 (Homo sapiens, UniProt Q13131); cell-free assay: 83%
ACVRL1 (Homo sapiens, UniProt P37023); binding: 100%
NUAK1 (Homo sapiens, UniProt O60285); cell-free assay: 100%
PLK4 (Homo sapiens, UniProt O00444); cell-free assay: 84%
LRRK2 (Homo sapiens, UniProt Q5S007); cell-free assay: 97%
TRPM6 (Homo sapiens, UniProt Q9BX84); cell-free assay: 100%
STK32B (Homo sapiens, UniProt Q9NY57); cell-free assay: 100%
GRK1 (Homo sapiens, UniProt Q15835); cell-free assay: 100%
EPHA4 (Homo sapiens, UniProt P54764); cell-free assay: 100%
EIF2AK1 (Homo sapiens, UniProt Q9BQI3); cell-free assay: 93%
PRKCQ (Homo sapiens, UniProt Q04759); cell-free assay: 100%
FGR (Homo sapiens, UniProt P09769); cell-free assay: 100%
HIPK4 (Homo sapiens, UniProt Q8NE63); cell-free assay: 100%
Mast/stem cell growth factor receptor Kit, autoinhibited (KIT, Homo sapiens, UniProt P10721); cell-free assay: 72%
PIK3CA (Homo sapiens, UniProt P42336, M1043I); cell-free assay: 94%
CDKL5 (Homo sapiens, UniProt O76039); binding: 76%
SLK (Homo sapiens, UniProt Q9H2G2); cell-free assay: 100%
FRK (Homo sapiens, UniProt P42685); cell-free assay: 92%
Ribosomal protein S6 kinase alpha-6, N-terminal kinase domain (RPS6KA6, Homo sapiens, UniProt Q9UK32); cell-free assay: 81%
PIP4K2C (Homo sapiens, UniProt Q8TBX8); cell-free assay: 81%
PIK3C2G (Homo sapiens, UniProt O75747); cell-free assay: 95%
MAPK8 (Homo sapiens, UniProt P45983); cell-free assay: 77%
eIF-2-alpha kinase GCN2, C-terminal kinase domain (EIF2AK4, Homo sapiens, UniProt Q9P2K8, S808G); cell-free assay: 100%
CAMK1G (Homo sapiens, UniProt Q96NX5); cell-free assay: 100%
MAP3K12 (Homo sapiens, UniProt Q12852); cell-free assay: 74%

Series 3 — concentration: 1 µM; measurement: remaining binding
Compound: CN1CCN(C(=O)c2ccc(NC(=O)Nc3ccc(N(C)c4ccnc(Nc5ccc(CS(C)(=O)=O)cc5)n4)cc3)cc2)CC1
BMP2K (Homo sapiens, UniProt Q9NSY1); competitive binding; BIKE: 2.4%
TRPM6 (Homo sapiens, UniProt Q9BX84); competitive binding panel; reference: vehicle: 91%
Myosin-IIIa (MYO3A, Homo sapiens, UniProt Q8NEV4); competitive binding panel; reference: vehicle: 7%
NTRK3 (Homo sapiens, UniProt Q16288); competitive binding; TRKC: 2%
FGFR1 (Homo sapiens, UniProt P11362); competitive binding panel; reference: vehicle: 100%
PI4KB (Homo sapiens, UniProt Q9UBF8); competitive binding panel, measured: PIK4CB; reference: vehicle: 97%
PHKG2 (Homo sapiens, UniProt P15735); competitive binding panel; reference: vehicle: 100%
EPHA4 (Homo sapiens, UniProt P54764); competitive binding panel; reference: vehicle: 85%
HIPK1 (Homo sapiens, UniProt Q86Z02); competitive binding panel; reference: vehicle: 72%

Series 4 — target: His6 tag; technique: AlphaScreen counter screen; concentration: concentration not given; measurement: inhibition
NC(=O)c1ccc2ccccc2c1: -5.35%
O=C(NC[C@H](O)CO)c1ccncc1Nc1ccc(I)cc1F: 11.6%
O=C(Nc1ccc2[nH]ncc2c1)c1c(F)c(F)c(F)c(F)c1F: 2%
COc1ccc(C(=O)Nc2sc3c(c2C(N)=O)CCCC3)cc1OC: 4.25%
COC(=O)CSc1ccc2nnc(-c3cccc(F)c3)n2n1: 6.35%
COc1ccc2[nH]c([S+]([O-])Cc3ncc(C)c(OC)c3C)nc2n1 (stereo not drawn): -15.3%
CN1CCN(Cc2c(-c3ccco3)[nH]c3ncccc23)CC1: 3.65%

For quick reference, copied from above (series 4):
NC(=O)c1ccc2ccccc2c1: -5.35%
O=C(NC[C@H](O)CO)c1ccncc1Nc1ccc(I)cc1F: 11.6%
O=C(Nc1ccc2[nH]ncc2c1)c1c(F)c(F)c(F)c(F)c1F: 2%
COc1ccc(C(=O)Nc2sc3c(c2C(N)=O)CCCC3)cc1OC: 4.25%
COC(=O)CSc1ccc2nnc(-c3cccc(F)c3)n2n1: 6.35%
COc1ccc2[nH]c([S+]([O-])Cc3ncc(C)c(OC)c3C)nc2n1 (stereo not drawn): -15.3%
CN1CCN(Cc2c(-c3ccco3)[nH]c3ncccc23)CC1: 3.65%
